Measurements of several laboratories.
Each numbered part is a random draw from the data of one study; scales do not carry over between parts. “And” joins repeats or separate records; there may be more than shown.
Sequence of UniProt P10721 (whole entry, unmodified, looked up): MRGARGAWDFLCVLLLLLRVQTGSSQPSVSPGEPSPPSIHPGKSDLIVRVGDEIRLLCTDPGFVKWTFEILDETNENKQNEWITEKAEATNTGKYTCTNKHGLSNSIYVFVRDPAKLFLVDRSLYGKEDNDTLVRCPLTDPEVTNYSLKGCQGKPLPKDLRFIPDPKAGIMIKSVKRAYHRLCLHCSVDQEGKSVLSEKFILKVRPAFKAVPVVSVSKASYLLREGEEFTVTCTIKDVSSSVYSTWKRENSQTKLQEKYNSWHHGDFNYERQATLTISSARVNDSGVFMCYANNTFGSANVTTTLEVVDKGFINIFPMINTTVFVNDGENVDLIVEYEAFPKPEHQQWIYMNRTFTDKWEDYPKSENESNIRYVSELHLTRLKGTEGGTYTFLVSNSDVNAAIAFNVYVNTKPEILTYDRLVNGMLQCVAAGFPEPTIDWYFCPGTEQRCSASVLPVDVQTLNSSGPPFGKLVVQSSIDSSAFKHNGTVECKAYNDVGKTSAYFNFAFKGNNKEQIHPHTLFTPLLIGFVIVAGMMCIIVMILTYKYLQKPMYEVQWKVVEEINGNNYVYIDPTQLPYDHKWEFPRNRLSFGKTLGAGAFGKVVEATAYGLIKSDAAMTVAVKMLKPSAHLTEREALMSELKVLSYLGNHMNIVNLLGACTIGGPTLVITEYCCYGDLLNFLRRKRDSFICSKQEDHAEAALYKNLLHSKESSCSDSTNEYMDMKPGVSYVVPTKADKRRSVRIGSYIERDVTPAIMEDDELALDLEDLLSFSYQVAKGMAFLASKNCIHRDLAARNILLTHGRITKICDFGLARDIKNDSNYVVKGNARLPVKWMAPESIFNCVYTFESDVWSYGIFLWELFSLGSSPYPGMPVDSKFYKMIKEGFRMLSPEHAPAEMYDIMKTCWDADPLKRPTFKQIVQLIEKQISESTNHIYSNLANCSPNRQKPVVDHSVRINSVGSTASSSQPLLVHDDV
Sequence of UniProt Q13131 (whole entry, looked up): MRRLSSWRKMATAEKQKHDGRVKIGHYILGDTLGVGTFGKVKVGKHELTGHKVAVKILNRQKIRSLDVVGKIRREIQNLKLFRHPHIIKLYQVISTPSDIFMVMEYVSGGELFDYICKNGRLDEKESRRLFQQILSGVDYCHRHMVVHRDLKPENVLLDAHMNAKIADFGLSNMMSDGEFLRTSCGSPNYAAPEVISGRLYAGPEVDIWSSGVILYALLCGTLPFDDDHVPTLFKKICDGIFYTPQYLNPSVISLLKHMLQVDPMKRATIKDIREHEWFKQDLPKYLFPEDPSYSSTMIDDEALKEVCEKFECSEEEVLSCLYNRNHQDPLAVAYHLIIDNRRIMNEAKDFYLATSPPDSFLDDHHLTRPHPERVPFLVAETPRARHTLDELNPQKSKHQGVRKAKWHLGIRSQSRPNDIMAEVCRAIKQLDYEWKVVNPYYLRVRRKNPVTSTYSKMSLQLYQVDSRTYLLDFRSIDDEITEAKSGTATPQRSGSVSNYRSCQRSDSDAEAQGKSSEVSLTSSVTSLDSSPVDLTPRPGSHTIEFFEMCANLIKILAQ
Sequence of UniProt Q9H2X6 (whole entry, looked up): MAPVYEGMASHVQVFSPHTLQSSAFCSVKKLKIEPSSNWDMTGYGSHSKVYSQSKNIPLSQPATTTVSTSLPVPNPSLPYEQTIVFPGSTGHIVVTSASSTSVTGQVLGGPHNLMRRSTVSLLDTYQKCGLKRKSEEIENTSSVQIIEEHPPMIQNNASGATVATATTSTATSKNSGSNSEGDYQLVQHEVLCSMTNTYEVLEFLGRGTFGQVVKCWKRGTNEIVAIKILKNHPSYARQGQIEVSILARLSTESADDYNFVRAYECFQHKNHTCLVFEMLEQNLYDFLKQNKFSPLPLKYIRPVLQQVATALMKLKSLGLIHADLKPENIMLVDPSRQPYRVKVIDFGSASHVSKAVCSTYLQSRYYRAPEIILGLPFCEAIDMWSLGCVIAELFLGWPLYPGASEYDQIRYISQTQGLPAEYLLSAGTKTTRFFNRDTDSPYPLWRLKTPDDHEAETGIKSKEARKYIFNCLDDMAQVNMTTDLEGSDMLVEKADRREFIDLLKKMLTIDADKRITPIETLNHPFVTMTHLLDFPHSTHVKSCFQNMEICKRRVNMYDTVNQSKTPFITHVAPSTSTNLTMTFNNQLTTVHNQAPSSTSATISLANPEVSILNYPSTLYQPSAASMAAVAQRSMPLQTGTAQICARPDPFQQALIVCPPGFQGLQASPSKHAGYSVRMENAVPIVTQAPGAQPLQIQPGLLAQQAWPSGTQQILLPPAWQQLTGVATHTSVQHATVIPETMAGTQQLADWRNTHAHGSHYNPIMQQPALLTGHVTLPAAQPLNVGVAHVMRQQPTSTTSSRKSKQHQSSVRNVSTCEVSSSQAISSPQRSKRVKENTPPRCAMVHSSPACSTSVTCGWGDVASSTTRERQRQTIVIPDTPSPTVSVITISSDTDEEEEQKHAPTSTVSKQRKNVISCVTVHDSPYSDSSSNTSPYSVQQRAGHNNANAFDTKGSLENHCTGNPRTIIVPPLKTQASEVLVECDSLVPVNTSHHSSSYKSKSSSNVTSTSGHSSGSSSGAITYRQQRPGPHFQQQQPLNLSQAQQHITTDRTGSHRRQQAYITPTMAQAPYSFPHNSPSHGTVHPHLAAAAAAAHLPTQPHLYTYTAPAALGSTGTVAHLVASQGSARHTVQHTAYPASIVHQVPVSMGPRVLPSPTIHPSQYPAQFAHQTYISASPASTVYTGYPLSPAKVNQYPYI
Sequence of UniProt P08631 (whole entry, looked up): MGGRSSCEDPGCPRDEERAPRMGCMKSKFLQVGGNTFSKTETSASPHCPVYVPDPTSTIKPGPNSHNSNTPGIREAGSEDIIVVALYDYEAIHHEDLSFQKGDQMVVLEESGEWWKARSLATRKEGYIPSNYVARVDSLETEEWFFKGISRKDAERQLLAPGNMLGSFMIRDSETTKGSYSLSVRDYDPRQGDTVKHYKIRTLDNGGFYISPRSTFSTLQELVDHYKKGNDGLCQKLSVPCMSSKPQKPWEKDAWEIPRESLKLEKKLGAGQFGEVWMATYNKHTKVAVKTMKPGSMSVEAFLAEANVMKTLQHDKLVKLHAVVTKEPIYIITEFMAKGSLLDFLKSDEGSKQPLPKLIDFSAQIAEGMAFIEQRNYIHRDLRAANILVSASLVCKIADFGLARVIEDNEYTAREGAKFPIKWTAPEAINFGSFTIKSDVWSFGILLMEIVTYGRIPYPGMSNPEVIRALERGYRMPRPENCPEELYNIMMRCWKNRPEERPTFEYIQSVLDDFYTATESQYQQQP
Sequence of UniProt Q00537 (whole entry, looked up): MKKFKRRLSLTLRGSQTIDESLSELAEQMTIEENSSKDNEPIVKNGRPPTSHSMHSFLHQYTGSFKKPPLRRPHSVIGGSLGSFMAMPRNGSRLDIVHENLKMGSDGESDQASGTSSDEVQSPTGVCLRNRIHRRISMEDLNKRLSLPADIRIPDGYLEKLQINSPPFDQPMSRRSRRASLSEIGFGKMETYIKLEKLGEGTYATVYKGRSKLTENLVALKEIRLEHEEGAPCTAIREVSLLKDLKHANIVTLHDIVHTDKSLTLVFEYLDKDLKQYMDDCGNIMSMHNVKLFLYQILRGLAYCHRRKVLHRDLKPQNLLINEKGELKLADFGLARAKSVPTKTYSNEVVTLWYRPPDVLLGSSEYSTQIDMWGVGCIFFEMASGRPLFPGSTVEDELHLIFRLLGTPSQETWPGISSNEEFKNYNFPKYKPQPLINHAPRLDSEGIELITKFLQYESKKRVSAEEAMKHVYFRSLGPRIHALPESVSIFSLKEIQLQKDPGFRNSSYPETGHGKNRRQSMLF
Sequence of UniProt Q9P1W9 (whole entry, looked up): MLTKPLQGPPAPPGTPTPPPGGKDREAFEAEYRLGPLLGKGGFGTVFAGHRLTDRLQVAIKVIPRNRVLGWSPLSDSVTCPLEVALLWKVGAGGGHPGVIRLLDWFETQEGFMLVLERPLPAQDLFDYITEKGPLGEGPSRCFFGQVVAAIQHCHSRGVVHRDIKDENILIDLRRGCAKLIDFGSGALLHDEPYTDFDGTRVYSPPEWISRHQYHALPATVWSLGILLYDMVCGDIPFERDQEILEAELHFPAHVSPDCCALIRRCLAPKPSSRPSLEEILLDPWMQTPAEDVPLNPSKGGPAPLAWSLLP

Block 1 — effect on: cell-free assay; method: competition with immobilised ligand; tested at: 0.1 µM
Structure (SMILES): O=C(NCCCC1CCCCC1)c1ccc(CNC(=O)c2cnn(-c3ccccc3)c2C(F)(F)F)cc1
target	remaining binding
Epidermal growth factor receptor (EGFR, Homo sapiens, UniProt P00533, del747-752/P753S)	100%
Rho-associated protein kinase 1 (ROCK1, Homo sapiens, UniProt Q13464)	100%
Phosphatidylinositol 4-phosphate 5-kinase type-1 alpha (PIP5K1A, Homo sapiens, UniProt Q99755)	100%
Mitogen-activated protein kinase 8 (MAPK8, Homo sapiens, UniProt P45983)	99%
Tyrosine-protein kinase HCK (HCK, Homo sapiens, UniProt P08631)	100%
ALK tyrosine kinase receptor (ALK, Homo sapiens, UniProt Q9UM73)	100%
Mast/stem cell growth factor receptor Kit (KIT, Homo sapiens, UniProt P10721, V559D/V654A)	100%
Fibroblast growth factor receptor 4 (FGFR4, Homo sapiens, UniProt P22455)	100%
Serine/threonine-protein kinase LATS2 (LATS2, Homo sapiens, UniProt Q9NRM7)	97%
Homeodomain-interacting protein kinase 2 (HIPK2, Homo sapiens, UniProt Q9H2X6)	100%
Tyrosine-protein kinase receptor Tie-1 (TIE1, Homo sapiens, UniProt P35590)	100%
Cyclin-dependent kinase 17 (CDK17, Homo sapiens, UniProt Q00537)	100%
Mast/stem cell growth factor receptor Kit (KIT, Homo sapiens, UniProt P10721)	100%
TGF-beta receptor type-2 (TGFBR2, Homo sapiens, UniProt P37173)	100%
Serine/threonine-protein kinase pim-2 (PIM2, Homo sapiens, UniProt Q9P1W9)	100%

Block 2 — mode: inhibitor
SMILES: Cc1nc(Nc2ncc(C(=O)Nc3c(C)cccc3Cl)s2)cc(N2CCN(CCO)CC2)n1
target	setting	inhibition [%]
5'-AMP-activated protein kinase catalytic subunit alpha-1 (PRKAA1, Homo sapiens, UniProt Q13131)	10 µM	< 50
Serine/threonine-protein kinase MARK1 (MARK1, Homo sapiens, UniProt Q9P0L2)	10 µM	< 50
Cyclin-dependent kinase 14 (CDK14, Homo sapiens, UniProt O94921)	10 µM	< 50
Wee1-like protein kinase 2 (WEE2, Homo sapiens, UniProt P0C1S8)	10 µM	100
Serine/threonine-protein kinase PAK 5 (PAK5, Homo sapiens, UniProt Q9P286)	10 µM	< 50
Death-associated protein kinase 2 (DAPK2, Homo sapiens, UniProt Q9UIK4)	10 µM	< 50
Serine/threonine-protein kinase 38-like (STK38L, Homo sapiens, UniProt Q9Y2H1)	10 µM	< 50
High affinity nerve growth factor receptor (NTRK1, Homo sapiens, UniProt P04629)	1 µM	< 50

Block 3 — species: C57BL/6 CES1-/- mice, MC-38 tumour; dose: dose not given; with: anti-PD-1; relative to: initial
Structure (SMILES): CC(=O)N[C@@H](Cc1c[nH]c2ccccc12)C(=O)N[C@@H](CCC(=O)C=[N+]=[N-])C(=O)OC(C)C
setting	body weight
day 18 after inoculation	97.2% and 93.9% and 95.9% and 95% and 96.7% and 98.6% and 98.7%
day 27 after inoculation	95.6% and 93.9% and 99.3% and 97.2% and 96.8% and 99.5% and 99.2%
day 31 after inoculation	93.5% and 99.5% and 96.4% and 97.4% and 99.1% and 94.3% and 96.1%
day 21 after inoculation	92.9% and 96.4% and 95.2% and 101% and 98% and 95.9%
day 14 after inoculation	96.8% and 95.9% and 99.6% and 98.7% and 94.6% and 94.8%
day 56 after inoculation	98.1% and 89.9% and 100% and 105% and 87%
day 77 after inoculation	105% and 101%
day 25 after inoculation	97.7% and 96.2% and 102% and 98.9% and 93.5% and 98.8% and 97.4%

Block 4 — effect on: enzyme activity; mode: inhibitor; tested at: 0.5 µM; relative to: control
Target: Mitogen-activated protein kinase kinase kinase kinase 5 (MAP4K5, Homo sapiens, UniProt Q9Y4K4)
Sequence of UniProt Q9Y4K4 (whole entry, looked up): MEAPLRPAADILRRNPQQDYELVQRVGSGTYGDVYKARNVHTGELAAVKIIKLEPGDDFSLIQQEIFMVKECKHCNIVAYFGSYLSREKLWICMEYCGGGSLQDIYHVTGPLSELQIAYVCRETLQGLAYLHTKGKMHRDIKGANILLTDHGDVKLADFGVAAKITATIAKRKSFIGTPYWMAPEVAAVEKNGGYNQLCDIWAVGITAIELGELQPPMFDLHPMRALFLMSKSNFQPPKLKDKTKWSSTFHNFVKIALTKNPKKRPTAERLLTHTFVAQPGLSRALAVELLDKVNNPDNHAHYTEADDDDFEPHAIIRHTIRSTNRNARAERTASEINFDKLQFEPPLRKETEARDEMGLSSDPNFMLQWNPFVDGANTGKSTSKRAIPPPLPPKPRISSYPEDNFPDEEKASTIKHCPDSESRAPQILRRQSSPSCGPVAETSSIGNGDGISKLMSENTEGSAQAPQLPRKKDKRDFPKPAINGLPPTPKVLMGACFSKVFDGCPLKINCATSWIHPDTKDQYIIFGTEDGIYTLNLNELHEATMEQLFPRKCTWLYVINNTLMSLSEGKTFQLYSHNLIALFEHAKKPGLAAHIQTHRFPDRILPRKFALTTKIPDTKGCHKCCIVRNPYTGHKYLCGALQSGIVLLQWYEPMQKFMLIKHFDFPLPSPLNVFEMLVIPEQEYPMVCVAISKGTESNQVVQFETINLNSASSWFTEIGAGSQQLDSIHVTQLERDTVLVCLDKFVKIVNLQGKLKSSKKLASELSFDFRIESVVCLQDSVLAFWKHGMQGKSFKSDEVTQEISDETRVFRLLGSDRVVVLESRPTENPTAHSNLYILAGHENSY
Compound	remaining activity [%]
Cn1nc2c3c(cccc31)C(=O)c1ccccc1-2	86
CCN(CC)CCNC(=O)c1c(C)[nH]c(/C=C2\C(=O)Nc3ccc(Cl)cc32)c1C	0.833
CN(C)C[C@H]1CCn2c(c(C3=C(c4cn(C)c5ccccc45)C(=O)NC3=O)c3ccccc32)C1	99.9
Ic1cccc(CSc2nnc(-c3ccncc3)o2)c1	99.5
O=C1C(Cl)=C(N2C(=O)CCC2=O)C(=O)c2ccccc21	90.4
CN([C@@H](Cc1ccc(OS(=O)(=O)c2cccc3cnccc23)cc1)C(=O)N1CCN(c2ccccc2)CC1)S(=O)(=O)c1cccc2cnccc12	96.3
COc1cc2ncnc(Nc3ccc(O)c(Br)c3)c2cc1OC	28.9
c1ccc(-c2[nH]ncc2-c2ccnc3ccccc23)nc1	87.4
Cc1nc2cc3nc(-c4cccs4)cnc3cc2n1C	94.8
O=c1cc(-c2cccc3c2Sc2ccccc2S3)oc(N2CCOCC2)c1	93.6
CCN(CC)C(=O)c1ccc(Nc2nc(OCC3CCCCC3)c3[nH]cnc3n2)cc1	78
O=C(NC(NC(=S)Nc1ccc(F)c([N+](=O)[O-])c1)C(Cl)(Cl)Cl)C(c1ccccc1)c1ccccc1 (stereo not shown)	91
Nc1cccc(-c2cc3c(Oc4cccc(O)c4)ncnc3[nH]2)c1	18.4
Cc1cc2ncc(-c3ccccc3)nc2cc1C	89.3
N#Cc1c(NC(=O)c2cccc3ccccc23)sc2c1CCCC2	93.8
COc1cc2ncnc(Nc3cccc(Cl)c3)c2cc1OC	59.5
Cc1cn(-c2cc(NC(=O)c3ccc(C)c(Nc4nccc(-c5cccnc5)n4)c3)cc(C(F)(F)F)c2)cn1	100
COc1cc2c(cc1OC)-c1[nH]nc(Nc3cccc(F)c3)c1C2	89
CCN(CC)CCNC(=O)c1c(C)[nH]c(/C=C2\C(=O)Nc3ccc(F)cc32)c1C	4.06
C[C@@H]1CCN(C(=O)CC#N)C[C@@H]1N(C)c1ncnc2[nH]ccc12	112
c1ccc(-c2cnc(Nc3ccc(OCCN4CCCC4)cc3)s2)cc1	72.5

Excerpt of the above (block 4):
Compound	remaining activity [%]
COc1cc2ncnc(Nc3ccc(O)c(Br)c3)c2cc1OC	28.9
c1ccc(-c2[nH]ncc2-c2ccnc3ccccc23)nc1	87.4
Cc1nc2cc3nc(-c4cccs4)cnc3cc2n1C	94.8
O=c1cc(-c2cccc3c2Sc2ccccc2S3)oc(N2CCOCC2)c1	93.6
